Assay results from different studies.
Each numbered part is a random draw from the data of one study; scales do not carry over between parts. Substitutions count along the parent as printed.
UniProt P08631, sequence (whole entry, looked up): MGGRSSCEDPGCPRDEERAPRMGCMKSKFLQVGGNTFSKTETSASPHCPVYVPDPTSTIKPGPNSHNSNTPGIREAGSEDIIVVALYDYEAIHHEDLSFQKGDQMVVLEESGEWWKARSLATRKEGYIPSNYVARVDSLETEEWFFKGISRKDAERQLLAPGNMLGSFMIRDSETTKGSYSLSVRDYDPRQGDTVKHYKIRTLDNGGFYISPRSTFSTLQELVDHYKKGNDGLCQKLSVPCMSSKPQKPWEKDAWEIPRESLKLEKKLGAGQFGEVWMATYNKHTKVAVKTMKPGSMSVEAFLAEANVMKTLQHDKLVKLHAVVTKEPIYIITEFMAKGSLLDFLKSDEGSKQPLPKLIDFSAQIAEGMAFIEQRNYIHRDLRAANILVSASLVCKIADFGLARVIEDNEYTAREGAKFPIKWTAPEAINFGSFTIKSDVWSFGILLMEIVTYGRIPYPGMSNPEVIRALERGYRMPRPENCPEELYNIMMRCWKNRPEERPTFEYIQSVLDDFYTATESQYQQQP

Study 1
Target: CEP164, C-terminal peptide (human)
Technique: DHFR complementation, deep sequencing
Matrix: yeast
Notes: single substitutions, model-inferred values
Baseline: wild type
Reading: higher = weaker binding
Measurement: binding free energy change
Parent: PDZK1, PDZ domain 2 (human); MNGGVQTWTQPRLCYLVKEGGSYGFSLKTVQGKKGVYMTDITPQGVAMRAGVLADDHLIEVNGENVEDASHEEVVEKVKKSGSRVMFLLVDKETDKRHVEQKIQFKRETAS; partner HNRVKVYRF
Y15K: 0.43 kJ/mol
I59C: 2.27 kJ/mol
E100M: -0.351 kJ/mol
K28T: -1.6 kJ/mol
V36Q: 3.18 kJ/mol
E76P: 4.68 kJ/mol
K80Y: 3.46 kJ/mol
V17C: 0.164 kJ/mol

Study 2
Target: RNA binding protein fox-1 homolog 2, RRM domain, GST-SBP tag (RBFOX2, Homo sapiens, UniProt O43251-10, residues 100-194)
Technique: RNA Bind-n-Seq
Form: RNA
Matrix: in vitro
Concentration: 365 nM
Notes: natural RNA segment, single round, ends assumed
Baseline: no-protein control
Reading: higher = stronger binding
Measurement: RBNS enrichment (R)
Shared flanks, not repeated: GGGAGUUCUACAGUCCGACGAUC … UGGAAUUCUCGGGUGCCAA
Target sequence (chain): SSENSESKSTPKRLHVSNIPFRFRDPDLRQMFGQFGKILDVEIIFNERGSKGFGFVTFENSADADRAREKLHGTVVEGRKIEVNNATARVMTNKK
CCUUGCCCCACCCAUCCCAUCUCCAACCCUAGUCUUCCAUUUCCUCCCGCCAGUCUCCAUUGAAUCAAUGGUGCAGGACAGAAAGCCAGUCAGACUAAUUUCCUUCUUUC: 0.662
UUCCUGUACCUUUGACUAACGCUCAGCUUCCGGGCCUGCAUGCAGUAGACAGAAGAGGAAGAAAGAACAGAUGUUCACAGCUGAAUCUCAGUGAACAGAAUAGCAGUCCC: 1.11
UUUCAUUUUACAGUUACUUUUCCUUGCAUACAAACAAGCAUAUAAAAUGGCAACAAACUGCACAUGAUUUCACAAAUAUUAAAAAGUCUUUUAAAAAGUAUUGCCAAACA: 1.52
UAUAAAGGGCUUUUCUGAAAUUUAAACAGCUUGGUGAUGCAUCCUGAUAUUAUAAGCUUAAAACUAUCUUGAGGGGGAAAUGACUUCUUUUCUCCUUCUGUCCCUUUUCU: 0.712
UGUGGAGAAAAGAUUUGACUGAUAGAUGUUGGGACUUAGGCAAAGCUUUUGAAAGGCCUCUAACCUAAACUCCCACCCAGCCUGUCAGGCCCGCUUUGAUAUUCAUUCAG: 0.238
GCAGACACGGCACAGCAAACAUUUUGCAAACUGCAGCAGAAAUCGAAUUUAAAACAAAAAGGAGGGACUUUAAAAUACCUUCUUGACAAAAAUCAACAAUGCACAACUUA: 0.303
CCCUUCUUGCUAAUCCUUCUUCAGCUCUGAGGGUUGGAAUCAUAACUCACAUUCCUCAUUCCUAAGAAUUUGGAGCUAGCUGUUUGCCUUUGACUCCCUGACUUCAAGCC: 0.346
UUAUUCUAAAUCACCAGAAAAUUAAUUUCAGUUUCUAUUGGGAGUUUAUACCAAGAGAUUCUUCUAGAUCUCAUUGAUCCUUUUGAAGAGCUUUUUCUAUAUUAGGAUAU: 0.359

Study 3
Target: Interferon regulatory factor 3, full length, phosphomimetic (IRF3, Homo sapiens, UniProt Q14653, residues 1-427, S386D/S396D/S398D/S402D/T404D/S405D)
UniProt Q14653, sequence (whole entry, unmodified, looked up): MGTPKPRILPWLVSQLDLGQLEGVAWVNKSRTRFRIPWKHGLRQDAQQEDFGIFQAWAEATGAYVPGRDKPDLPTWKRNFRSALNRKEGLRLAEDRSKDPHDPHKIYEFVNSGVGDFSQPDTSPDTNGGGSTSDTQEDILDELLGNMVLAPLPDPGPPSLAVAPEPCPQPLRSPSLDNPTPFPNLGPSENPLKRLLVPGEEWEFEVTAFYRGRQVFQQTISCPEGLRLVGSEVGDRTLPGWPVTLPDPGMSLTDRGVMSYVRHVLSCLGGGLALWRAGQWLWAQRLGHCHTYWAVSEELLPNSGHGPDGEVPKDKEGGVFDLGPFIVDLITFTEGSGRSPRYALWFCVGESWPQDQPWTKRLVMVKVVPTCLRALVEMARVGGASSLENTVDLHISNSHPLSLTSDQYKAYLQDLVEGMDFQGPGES
Technique: protein-binding microarray
Form: double-stranded DNA, one strand shown
Matrix: in vitro
Concentration: 2540 nM top
Notes: 60-bp whole probe
Together with: salmon DNA 0.4 mg/ml
Baseline: random background probes
Reading: higher = stronger binding
Measurement: fitted relative affinity
Shared flanks, not repeated: GCCTAGCAC … GTCTTGATTCGCTTGACGCTGCTG
ATGACTCTGCCTCTAACTGCGTGCTAG: -0.493 z-score
GACGGACTGAACACTGGGGACGTGCTA: -0.269 z-score
CATCTTCTGGATTTTTTAGCGTGCTAG: 2.25 z-score
TTAGGTCTCGATATCGGTTAGTGCTAG: 0.796 z-score
GACGGTCTCATTTTCCTGACGTGCTAG: 2.4 z-score
AACGGTTTCGGACTGGGGACGTGCTAG: 4.32 z-score
GACGATTTCAGATTCGAGACGTGCTAG: 3.06 z-score
TGAGAACTGGGGACTGGATTAGTGCTA: -1.08 z-score

Further values, each from its own experiment
CCS(=O)(=O)c1cc2cc(C[C@@](O)(CC(C)(C)c3ccc(F)cc3C(N)=O)C(F)(F)F)[nH]c2cn1  remaining binding (Tyrosine-protein kinase HCK (HCK, Homo sapiens, UniProt P08631); cell-free assay, competition with immobilised ligand; 1 µM): 100%

Some of these lines once more (study 2):
UUUCAUUUUACAGUUACUUUUCCUUGCAUACAAACAAGCAUAUAAAAUGGCAACAAACUGCACAUGAUUUCACAAAUAUUAAAAAGUCUUUUAAAAAGUAUUGCCAAACA: 1.52
UAUAAAGGGCUUUUCUGAAAUUUAAACAGCUUGGUGAUGCAUCCUGAUAUUAUAAGCUUAAAACUAUCUUGAGGGGGAAAUGACUUCUUUUCUCCUUCUGUCCCUUUUCU: 0.712
UGUGGAGAAAAGAUUUGACUGAUAGAUGUUGGGACUUAGGCAAAGCUUUUGAAAGGCCUCUAACCUAAACUCCCACCCAGCCUGUCAGGCCCGCUUUGAUAUUCAUUCAG: 0.238
GCAGACACGGCACAGCAAACAUUUUGCAAACUGCAGCAGAAAUCGAAUUUAAAACAAAAAGGAGGGACUUUAAAAUACCUUCUUGACAAAAAUCAACAAUGCACAACUUA: 0.303
